Experimental data from different studies.
Protocols differ between the studies behind these lines. ± gives the spread as reported.
ALDH1A1: Aldehyde dehydrogenase 1A1 (ALDH1A1, Homo sapiens, UniProt P00352)
MAP2K2: Dual specificity mitogen-activated protein kinase kinase 2 (MAP2K2, Homo sapiens, UniProt P36507)
MET: Hepatocyte growth factor receptor (MET, Homo sapiens, UniProt P08581)
CTSL: Procathepsin L (CTSL, Homo sapiens, UniProt P07711)
PDGFRB: Platelet-derived growth factor receptor beta (PDGFRB, Homo sapiens, UniProt P09619)
KCNN4: Intermediate conductance calcium-activated potassium channel protein 4 (KCNN4, Homo sapiens, UniProt O15554)
KDR: Vascular endothelial growth factor receptor 2 (KDR, Homo sapiens, UniProt P35968)
Type II NADH dehydrogenase: Type II NADH dehydrogenase (Plasmodium falciparum, UniProt Q8I302)

SMILES | target | test | system | setting | how to read | IC50
COc1ccc(C(=O)CCc2cc(C(CCc3ccc(O)cc3OC)c3ccc(O)cc3)c(O)cc2OC)cc1 (racemic) | Prostaglandin E synthase (PTGES, Homo sapiens, UniProt O14684) | enzyme activity, inhibitor | microsomes of IL-1β-treated A549 cells | – | – | ~1000 nM
CCc1ccc(NC(=O)CNS(=O)(=O)c2nc(-c3ccc(OC(F)(F)F)cc3)cc(C(F)(F)F)n2)cc1 | Bifunctional 3'-5' exonuclease/ATP-dependent helicase WRN (WRN, Homo sapiens, UniProt Q14191) | DNA unwinding, inhibitor, TAMRA dequenching | – | – | – | ~13 nM
CCOC(=O)N1CCC(Oc2nc3c(c(=O)n(C)c(=O)n3C)n2CCC(C)C)CC1 | ALDH1A1 | – | – | – | – | 138 ± 18 nM
C=CC1C(OC2OC(CO)C(O)C(O)C2O)OC=C2C(=O)OC(OC)CC21 (centres unmarked) | Alpha-glucosidase MAL12 (MAL12, Saccharomyces cerevisiae S288c, UniProt P53341) | enzyme activity, inhibitor, absorbance | – | – | – | > 100000 nM
O=C(Nc1ccc(-c2noc(C3CC3)n2)c(Cl)c1)c1cccs1 | Epidermal growth factor receptor (EGFR, Homo sapiens, UniProt P00533) | kinase activity, inhibitor, luminescence | – | – | limit value | < 10000 nM
O=C(NCCCNC(=O)c1cc(-c2n[nH]c3ccc(NC(=O)C4CCN(CC(=O)N5CCN(c6ccc(-c7ncccn7)cc6)CC5)C4)cc23)ccn1)OC1CCC=CCCC1 (centres unmarked) | Mitogen-activated protein kinase 1 (MAPK1, Homo sapiens, UniProt P28482) | ATF2-GFP phosphorylation, inhibitor, TR-FRET | – | – | – | 22 nM
CCCCCCCCCCCCCC(=S)NCCCC[C@H](NC(=O)CNC(=O)CN)C(=O)NCC(=O)O | NAD-dependent protein deacylase sirtuin-6 (SIRT6, Homo sapiens, UniProt Q8N6T7) | – | – | – | – | > 50000 nM
CCOC(=O)N1CCC(Nc2nc3c(c(=O)n(C)c(=O)n3C)n2Cc2cccc(C)c2)CC1 | ALDH1A1 | – | – | – | – | 562 ± 98 nM
O=C(NN1CCS(=O)(=O)CC1)c1ccncc1Nc1ccc(I)cc1F | MAP2K2 | enzyme activity, inhibitor, radiometric | – | – | – | 30 nM
CC(C)C1NC(=O)C(Cc2ccccc2)NC(=O)C(CCCCCC(=O)C2CO2)NC(=O)C2CCCCN2C1=O (centres unmarked) | Histone deacetylase (Plasmodium falciparum 3D7, UniProt Q7K6A1) | enzyme activity, inhibitor | – | – | – | 15 nM
COc1cc2ncnc(Oc3ccc(Nc4nccc5[nH]cc(-c6ccc(F)cc6)c(=O)c45)cc3F)c2cc1OC | MET | HGF-induced autophosphorylation, inhibitor, ELISA | MKN-45 | – | – | 47.3 nM
CC(C)CCN(c1nc(C#N)nc(N2CCOCC2)n1)C(C)c1ccc(F)cc1 (centres unmarked) | CTSL | enzyme activity, inhibitor, fluorescence | – | – | – | 15 nM
COc1cc2nccc(Oc3ccc4sc(Nc5ccc(Cl)c(F)c5)nc4c3)c2cc1C(N)=O | PDGFRB | – | – | – | – | 176 nM
NC(=O)NC(c1ccccc1)(c1ccccc1)c1ccccc1 | KCNN4 | ion current, inhibitor, patch clamp | – | – | – | 8000 nM
CCN(CC)CCNC(=O)c1cc2c(Oc3ccc(NC(=S)NC4CC4)c(Cl)c3)ccnc2cc1OC | KDR | – | – | – | – | 156 nM
Cn1cc2c(n1)CN(C(=O)Nc1nc(-c3ccc(F)cc3)ccc1N)C2 | Histone deacetylase 5 (HDAC5, Homo sapiens, UniProt Q9UQL6) | deacetylase activity, inhibitor, recombinant enzyme | – | – | – | > 30000 nM
NC1CCC(Nc2nccc(-c3cccnc3Oc3cccc4c(NS(=O)(=O)C5CCC5)cccc34)n2)CC1 (centres unmarked) | Serine/threonine-protein kinase/endoribonuclease IRE1, RNase domain (ERN1, Homo sapiens, UniProt O75460) | RNase activity, inhibitor | – | with: XBP1 mini-substrate | – | 42 ± 5 nM
C=CC(=O)N1CCc2ccc(-n3c(=O)ccc4cnc5ccc(-c6cnn(C)c6)cc5c43)cc21 | Tyrosine-protein kinase ABL1 (ABL1, Homo sapiens, UniProt P00519) | enzyme activity, inhibitor | – | – | – | > 10000 nM
CC1(CN)CCN(c2cnc(Sc3cccc(Cl)c3Cl)c(N)n2)CC1 | Tyrosine-protein phosphatase non-receptor type 11 (PTPN11, Homo sapiens, UniProt Q06124, E76K) | enzyme activity, inhibitor, fluorescence | – | – | – | 179 nM
COc1cc2nccc(Oc3ccc4c(c3)CCCN4C(=S)NC3CC3)c2cc1C(N)=O | KDR | – | – | – | – | 75.7 nM
CC(C)Oc1cc(NC(=O)[C@H](Cc2ccccc2)NC(=O)c2ccc(N)c(OCc3ccccc3)c2)ccc1C(=O)NCC(=O)O | Induced myeloid leukemia cell differentiation protein Mcl-1 (MCL1, Homo sapiens, UniProt Q07820) | fluorescence anisotropy competition | – | pH 7.50, with: FITC-NOXA B peptide | – | > 100000 nM
CC(C)[C@H](NC(=O)[C@H](C)NC(=O)[C@H](Cc1c[nH]c2ccccc12)NC(=O)[C@H](Cc1c[nH]cn1)NC(=O)[C@H](N)Cc1ccc(O)cc1)C(=O)N[C@H](C)C(=O)N[C@@H](Cc1c[nH]cn1)C(=O)N1CCC[C@@H]1CN[C@@H](Cc1ccccc1)C(N)=O | Neuromedin-B receptor (NMBR, Homo sapiens, UniProt P28336) | inositol phosphate generation, antagonist | NCI-H1299 | with: neuromedin B | – | > 10000 nM
NC(c1ccccc1)(c1ccccc1)c1ccccc1Cl | KCNN4 | ion current, inhibitor, patch clamp | – | – | – | 1000 nM
CCCCNC(=O)c1cccc(S(=O)(=O)NC2CC2)c1 | Ectonucleoside triphosphate diphosphohydrolase 2 (Homo sapiens, UniProt Q9Y5L3) | enzyme activity, inhibitor, absorbance | – | – | – | 2880 nM
CCCN(Cc1ccc(F)cc1)c1nc(C#N)nc(N2CCOCC2)n1 | CTSL | enzyme activity, inhibitor, fluorescence | – | – | – | 67 nM
COCC1CN(C2CCN(c3cc(OC)c(Nc4ncc(Br)c(Nc5ccc6c(c5P(C)(C)=O)OCCO6)n4)cc3C)CC2)C1 | Epidermal growth factor receptor (EGFR, Homo sapiens, UniProt P00533, C797S/L858R/T790M) | enzyme activity, inhibitor, TR-FRET | – | – | – | < 1.5 nM
COc1cc2nccc(Oc3ccc(NC(=S)Nc4ccc(Cl)cc4F)c(Cl)c3)c2cc1C(N)=O | KDR | – | – | – | – | 308 nM

SMILES | target | test | system | setting | how to read | IC50
O=C1C2=C(Nc3ccccc3SC2C2CCCCC2)c2ccccc21 (racemic) | Type II NADH dehydrogenase | enzyme activity, inhibitor, fluorescence NAD+ quantitation | recombinant enzyme | – | – | > 20000 nM
COc1cc(COc2ccc3c(C)cc(=O)oc3c2)cc(OC)c1OC | Nucleoside transporter 1 (Plasmodium vivax, UniProt A5K8B0) | yeast growth | purine auxotrophic yeast expressing target | 15 to 17 h, with: adenosine 1 mM | – | 77 ± 8 nM
COc1cc2nccc(Oc3ccc(NC(=S)NC4CC4)c(Cl)c3)c2cc1C(=O)NO | KDR | – | – | – | – | 20.1 nM
Cc1c(-c2ccc(Cc3ccc(OC(F)(F)F)cc3)cc2)[nH]c2cccc(F)c2c1=O | Type II NADH dehydrogenase | enzyme activity, inhibitor | – | with: NADH 200 µM, ubiquinone-1 100 µM | – | 3.6 nM
O=c1nc(NO)ccn1[C@@H]1O[C@H](CO)[C@@H](O)[C@H]1O | Cytochrome P450 2B6 (CYP2B6, Homo sapiens, UniProt P20813) | – | – | 20 min, pH 7.4 | – | > 100000 nM
NC1CCC(Nc2nccc(-c3cccnc3Oc3ccc(NS(=O)(=O)c4ccccc4Cl)cc3F)n2)CC1 (centres unmarked) | Serine/threonine-protein kinase/endoribonuclease IRE2, RNase domain (ERN2, Homo sapiens, UniProt Q76MJ5) | RNase activity, inhibitor | – | with: XBP1 mini-substrate | – | 3.9 ± 1.1 nM
C#Cc1cccc(Nc2ncnc3cc(OC)c(OCCCN4CCOCC4)cc23)c1 | MET | kinase activity, inhibitor | – | with: ATP 80.8 µM | – | > 10000 nM
COc1cc2nccc(Oc3ccc(NC(=S)NC4CC4)c(Cl)c3)c2cc1-c1ncco1 | KDR | – | – | – | – | 101 nM
O=C(O)/C=C\C(=O)NNC(=O)c1nccc2ccccc12 | Egl nine homolog 1 (EGLN1, Homo sapiens, UniProt Q9GZT9) | inhibitor, AlphaScreen | – | bimodal curve, rough estimate, with: 2 µM 2-oxoglutarate | – | > 300000 nM
COc1ccc(O[C@@H]2O[C@H](COS(=O)(=O)O)[C@H](OS(=O)(=O)O)[C@H](O[C@@H]3O[C@H](C(=O)O)[C@@H](O[C@@H]4O[C@H](COS(=O)(=O)O)[C@H](OS(=O)(=O)O)[C@H](O[C@@H]5O[C@H](C(=O)O)[C@@H](OS(=O)(=O)O)[C@H](OCc6ccccc6)[C@H]5O)[C@H]4NC(C)=O)[C@H](OCc4ccccc4)[C@H]3O)[C@H]2NC(C)=O)cc1 | Midkine (Homo sapiens, UniProt P21741) | heparin hexasaccharide binding, inhibitor, fluorescence polarisation competition | – | with: fluorescein-labelled hexasaccharide probe | – | 27000 nM
CC(C)C[C@@H]1NC(=O)[C@H]([C@@H](C)O)NC(=O)[C@H](Cc2ccccc2)NC(=O)CNC(=O)[C@H](Cc2c[nH]c3ccccc23)NC(=O)[C@H](Cc2c[nH]cn2)NC(=O)[C@H]([C@@H](C)O)NC(=O)[C@H]([C@@H](C)O)NC(=O)[C@H](C)NC(=O)C[C@@H](C(N)=O)NC1=O | 72 kDa type IV collagenase (MMP2, Homo sapiens, UniProt P08253) | enzyme activity, inhibitor | – | – | – | 11000 nM
CC1(C)C2CC3C(c4ccccc4)c4c(O)c(C=O)c(O)c(C=O)c4OC3(C)C1C2 (single isomer, unassigned; (+)) | ATP-dependent 6-phosphofructokinase, liver type (PFKL, Homo sapiens, UniProt P17858, K315R/K677R/K681R) | enzyme activity, inhibitor, coupled enzyme | – | triple mutant | – | > 100000 nM
CNc1nc(N)c(C(=O)c2ccc(F)cc2)s1 | GSK3 (Trypanosoma brucei, UniProt Q388M1) | enzyme activity, inhibitor, radiometric | – | – | – | 25000 nM
Cn1c(=O)c(=O)n(C)c2cc(S(=O)(=O)Nc3ccc(S(=O)(=O)Nc4ncccn4)cc3)ccc21 | Dipeptidyl peptidase 8 (Homo sapiens, UniProt Q6V1X1) | enzyme activity, inhibitor, fluorescence | – | – | – | > 100000 nM
CC(C)=CCN=C(N)NCCC[C@@H](NC(=O)CCCc1ccc(O)cc1)C(=O)N[C@@H](Cc1ccccc1)C(O)CC(=O)N[C@@H](Cc1ccc(O)cc1)C(=O)O (stereo in doubt) | Macrophage metalloelastase (MMP12, Homo sapiens, UniProt P39900) | enzyme activity, inhibitor | – | – | – | 2300 nM
COc1cc2nccc(Oc3ccc(NC(=S)NC4CC4)nc3)c2cc1C(N)=O | PDGFRB | – | – | – | – | 3810 nM
CCc1ccc(C(=O)N[C@@H](CO)C(=O)N[C@H](C(=O)N2CCC[C@H]2C(=O)N[C@@H](CC(N)=O)C(=O)NCC(=O)N[C@@H](CC(C)C)C(=O)O)[C@@H](C)OP(=O)(O)O)cc1 | Serine/threonine-protein kinase PLK3, polo-box domain (PLK3, Homo sapiens, UniProt Q9H4B4) | polo-box domain binding, fluorescence polarization | – | – | – | > 600000 nM
O=c1[nH]sc2ccccc12 | Polyamine deacetylase HDAC10 (HDAC10, Homo sapiens, UniProt Q969S8) | enzyme activity, inhibitor | – | – | – | > 10000 nM
C=CC(=O)Nc1cccc(Cn2ncc3cnc(Nc4cnn(CCOC)c4)nc32)c1 | Cytoplasmic tyrosine-protein kinase BMX (BMX, Homo sapiens, UniProt P51813) | enzyme activity, inhibitor, FRET | – | – | – | 3.18 nM
CC1=C(C2=C(C)C(=O)c3c(cc(O)c(O)c3C(C)C)C2=O)C(=O)c2cc(O)c(O)c(C(C)C)c2C1=O (racemic) | Bcl-2-related protein A1 (Homo sapiens, UniProt Q16548) | ligand displacement, FP | – | – | – | 227 nM
COc1cc2nccc(Oc3ccc(NC(=S)NC4CC4)c(Cl)c3)c2cc1C#N | PDGFRB | – | – | – | – | 504 nM
N#Cc1nc(N2CCOCC2)nc(N(CCC2CCCCC2)Cc2ccc(F)cc2)n1 | CTSL | enzyme activity, inhibitor, fluorescence | – | – | – | 87500 nM
CCOc1cncc(-c2ccc(NC(=O)C(CC)c3ccnc(NS(=O)(=O)C4CC4)n3)nc2)n1 (centres unmarked) | CTP synthase 2 (Canis lupus familiaris, UniProt A0A8I3QAX6) | enzyme activity, RapidFire mass spectrometry | dog | geometric mean | – | 4140 nM
CCc1oc2ccc(OC)cc2c1C(=O)c1cc(Br)c(O)c(Br)c1 | Solute carrier organic anion transporter family member 2B1 (SLCO2B1, Homo sapiens, UniProt O94956) | transporter uptake, inhibitor, radiometric | – | – | – | 21 nM
COc1ccc(C2Sc3ccccc3NC3=C2C(=O)c2ccccc23)cc1 (racemic) | Cytochrome b (MT-CYB, Homo sapiens, UniProt P00156) | enzyme activity, inhibitor | – | – | – | > 5000 nM
CC(C)NC1CCN(S(=O)(=O)Nc2ccc(F)c(F)c2Nc2ccc(I)cc2Cl)CC1 | MAP2K2 | enzyme activity, inhibitor | – | – | – | 56 nM
